Experimental data pooled from the literature.
Numbered parts are unrelated; each lists some results of a single study.
UniProt Q96D53, sequence (whole entry, looked up): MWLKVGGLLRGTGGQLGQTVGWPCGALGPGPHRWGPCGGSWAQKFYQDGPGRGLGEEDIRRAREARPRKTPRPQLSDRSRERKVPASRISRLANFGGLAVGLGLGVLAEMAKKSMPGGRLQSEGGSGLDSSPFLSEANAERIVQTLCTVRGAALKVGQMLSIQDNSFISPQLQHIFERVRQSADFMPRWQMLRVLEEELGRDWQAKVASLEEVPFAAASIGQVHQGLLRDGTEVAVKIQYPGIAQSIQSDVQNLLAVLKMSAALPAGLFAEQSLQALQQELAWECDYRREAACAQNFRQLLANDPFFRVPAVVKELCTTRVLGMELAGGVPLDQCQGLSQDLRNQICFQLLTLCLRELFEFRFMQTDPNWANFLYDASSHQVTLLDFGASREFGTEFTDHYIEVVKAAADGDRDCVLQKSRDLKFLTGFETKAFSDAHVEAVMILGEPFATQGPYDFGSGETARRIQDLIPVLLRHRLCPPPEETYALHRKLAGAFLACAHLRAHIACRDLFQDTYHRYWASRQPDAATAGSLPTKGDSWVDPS
UniProt Q15418, sequence (whole entry, looked up): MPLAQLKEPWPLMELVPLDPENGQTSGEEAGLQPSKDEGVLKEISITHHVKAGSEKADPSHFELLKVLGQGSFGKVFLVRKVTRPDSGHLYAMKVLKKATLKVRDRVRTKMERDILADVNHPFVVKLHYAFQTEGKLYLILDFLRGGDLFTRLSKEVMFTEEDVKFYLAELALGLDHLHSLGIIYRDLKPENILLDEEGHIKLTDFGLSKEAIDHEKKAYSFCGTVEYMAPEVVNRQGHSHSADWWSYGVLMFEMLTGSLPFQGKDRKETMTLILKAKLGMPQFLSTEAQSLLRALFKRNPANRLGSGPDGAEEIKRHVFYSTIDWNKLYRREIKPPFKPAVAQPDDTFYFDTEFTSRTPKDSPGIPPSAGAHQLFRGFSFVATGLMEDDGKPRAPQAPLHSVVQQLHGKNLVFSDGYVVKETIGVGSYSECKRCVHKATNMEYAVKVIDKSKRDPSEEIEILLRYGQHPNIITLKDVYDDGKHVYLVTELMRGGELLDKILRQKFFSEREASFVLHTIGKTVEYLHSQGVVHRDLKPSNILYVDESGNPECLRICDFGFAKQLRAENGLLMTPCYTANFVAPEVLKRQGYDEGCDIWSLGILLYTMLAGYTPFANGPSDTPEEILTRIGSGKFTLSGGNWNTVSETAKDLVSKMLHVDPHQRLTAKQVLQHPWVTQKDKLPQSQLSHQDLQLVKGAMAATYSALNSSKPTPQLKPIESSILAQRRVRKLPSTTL

Sample 1 — read-out: cell-free assay; method: competition with immobilised ligand; tested at: 0.1 µM
Structure (SMILES): Nc1c(C(=O)NCc2ccc(C(=O)NCCCC3CCCCC3)cc2)cnn1-c1ccccc1
target | remaining binding [%]
EPHB2 (Homo sapiens, UniProt P29323) | 100
Ribosomal protein S6 kinase alpha-1, N-terminal kinase domain (RPS6KA1, Homo sapiens, UniProt Q15418) | 100
COQ8B (Homo sapiens, UniProt Q96D53) | 100
PRKACB (Homo sapiens, UniProt P22694) | 82

Sample 2 — method: protein-binding microarray; form: double-stranded DNA, one strand shown; medium: in vitro; tested at: 0.8 µM; notes: whole 60-bp probe, no competitor; reading: higher = stronger binding
Target: Centromere-binding protein 1, full length, N-terminal tag (CBF1, Saccharomyces cerevisiae, UniProt P17106, residues 1-351)
UniProt P17106, sequence (whole entry, looked up): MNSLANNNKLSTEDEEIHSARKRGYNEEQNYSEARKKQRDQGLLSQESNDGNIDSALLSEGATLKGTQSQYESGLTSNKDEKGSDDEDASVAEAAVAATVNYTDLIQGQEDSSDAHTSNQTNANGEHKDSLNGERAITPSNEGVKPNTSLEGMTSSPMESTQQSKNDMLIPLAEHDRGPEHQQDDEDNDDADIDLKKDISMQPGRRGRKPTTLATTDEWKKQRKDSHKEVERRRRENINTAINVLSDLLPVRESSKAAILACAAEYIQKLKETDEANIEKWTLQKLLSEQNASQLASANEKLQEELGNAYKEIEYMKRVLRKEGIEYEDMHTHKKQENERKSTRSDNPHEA
Sequence | fluorescence intensity [a.u.]
CTAATTTCTCAGCGCCAGGTGATCTAACAATTTTTCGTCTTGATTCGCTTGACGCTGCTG | 885
TGTACGAAGCTATCGCACGTTCATATAGTAGTTAGGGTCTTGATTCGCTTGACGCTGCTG | 554
CTATGGAAAGGCCTTCACATGGTGATCCATCTTTTCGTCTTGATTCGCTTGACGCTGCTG | 575
GAATTTGCCAATAATCCTCACATGGTGGAGCTATAGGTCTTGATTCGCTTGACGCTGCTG | 667
GAAATATTTTTGCACCACGTAGAACTCAGAAGTTAGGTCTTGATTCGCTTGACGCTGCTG | 576
CTACCATAGTAAAGTGCTGATGTCTTCTGAGTTTTCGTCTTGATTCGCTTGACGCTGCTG | 531
GAACCCCGTATCCCGCACGTTGTTAAGTTAAACTAGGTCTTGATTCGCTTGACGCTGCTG | 603
CTACATACATGCACGCGCATGACAGTGACTGGCTTCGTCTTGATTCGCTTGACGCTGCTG | 1050

Sample 3 — method: EMSA with sequencing; form: double-stranded DNA, one strand shown; medium: in vitro; tested at: 10 and 20 nM; baseline: negative control set to 0; reading: higher = stronger binding
Target: Hepatocyte nuclear factor 3-alpha (Foxa1, Mus musculus, UniProt P35582, residues 1-468, full length assumed)
Notes: whole designed probe, mean of two concentrations, ends assumed
Residues (chain): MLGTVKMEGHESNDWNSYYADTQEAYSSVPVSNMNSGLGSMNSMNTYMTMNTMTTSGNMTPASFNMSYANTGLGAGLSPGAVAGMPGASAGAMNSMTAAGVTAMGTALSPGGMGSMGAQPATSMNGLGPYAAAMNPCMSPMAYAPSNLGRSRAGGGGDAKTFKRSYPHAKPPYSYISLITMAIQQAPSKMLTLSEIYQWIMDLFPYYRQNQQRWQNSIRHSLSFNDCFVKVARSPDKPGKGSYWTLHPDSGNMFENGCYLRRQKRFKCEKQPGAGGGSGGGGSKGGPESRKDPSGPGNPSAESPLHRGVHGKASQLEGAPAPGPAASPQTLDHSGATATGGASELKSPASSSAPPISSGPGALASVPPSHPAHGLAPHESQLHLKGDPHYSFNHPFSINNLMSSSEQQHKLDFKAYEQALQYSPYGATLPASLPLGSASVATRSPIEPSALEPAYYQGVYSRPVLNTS
Sequence | normalised bound fraction [ratio]
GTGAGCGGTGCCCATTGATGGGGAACTACTGGTTATAAGGAGAAGAGGCTAACAACTGTAGTAGTCTCAGATTGCTACAATTTTACACTATGAAATATGAGTGCCACAGATTTTCAGAGTAAACATGGGAGAGTAATCTAAAATAATGTGAAAATAAATCTCTAGTTAGATAGGAGTATCAGGAGAAAAGGCACAAGCAAGCATGCAAAGTGGAAAAAATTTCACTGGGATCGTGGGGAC | 0.181
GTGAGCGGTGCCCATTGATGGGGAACATCTTCCCCCTCTTCCTTGCCCCACCAGCTCACCTTCCCGGGTTATTTGCACAAAGGAAAATAAATAAAGCCGGCATTCGTTAACGCAGTTCACGCGCATACTGCTGTTTGCTCTGGATGAATCATGGTCCTTTGGCGACGCCAGGCTCCGGGAGAGCAAAGCACCGTGTCAGGGCCATGATCCGGGCTCGCCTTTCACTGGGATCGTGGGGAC | 0.38
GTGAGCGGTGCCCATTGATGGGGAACCATGTACAAACAAAATATGGGTTGTGTAATTTCAGTAATTCCATGTACAAGTTAAACACTCTGATATTTGCATTTAAAATGTCATTGCACAATGTAAACATGAATGCTAACAATCTTTTTTTTTTTTCCTGAGACGGAGTCTTGCTCTATCGCCCAGGCTGGAGTGCAGCGGCACAATCTCTGCTTACTGCCATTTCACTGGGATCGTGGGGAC | 0.502
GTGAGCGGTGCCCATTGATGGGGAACTGACCTGTGATCATGTTTCAGGAAGGAATGAAAGAGAGTTCTTTCTTAATAAAGAAAAACACTCAAGGACTTTGTTCATTTCCAAAGCTACTTGTTTACATTGTACACTGCGACCACCTTGCCGCTTTTCATCACAAGCTTGAATATTTAAATTCTGTACTTATATCTGTAAAATAGCCAGGAATTTCCTGTTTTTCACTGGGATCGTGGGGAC | 0.408
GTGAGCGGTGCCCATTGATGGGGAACTGGGCTGTCCTTGGACAGGGCCATGGGATGCCACTTCCCTCTCTCTCCCTTTGGCAGAGAGCCCTCGGAAACAGGAGTTATTGAGAAACCAAAAGTAATCTGCTCAGCCTCTCCCCGGGGCCTGTGGAGCCTGTTGCCCCGGATGGATGGGGTTAGTGCCAGCAGCTGCTCAGATGATCTGTGGGGCATGTTCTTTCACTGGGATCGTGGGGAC | -0.0725

Sample 4 — read-out: enzyme activity; mode: inhibitor; tested at: 0.5 µM; baseline: control
Target: Casein kinase I isoform gamma-3 (CSNK1G3, Homo sapiens, UniProt Q9Y6M4)
UniProt Q9Y6M4, sequence (whole entry, looked up): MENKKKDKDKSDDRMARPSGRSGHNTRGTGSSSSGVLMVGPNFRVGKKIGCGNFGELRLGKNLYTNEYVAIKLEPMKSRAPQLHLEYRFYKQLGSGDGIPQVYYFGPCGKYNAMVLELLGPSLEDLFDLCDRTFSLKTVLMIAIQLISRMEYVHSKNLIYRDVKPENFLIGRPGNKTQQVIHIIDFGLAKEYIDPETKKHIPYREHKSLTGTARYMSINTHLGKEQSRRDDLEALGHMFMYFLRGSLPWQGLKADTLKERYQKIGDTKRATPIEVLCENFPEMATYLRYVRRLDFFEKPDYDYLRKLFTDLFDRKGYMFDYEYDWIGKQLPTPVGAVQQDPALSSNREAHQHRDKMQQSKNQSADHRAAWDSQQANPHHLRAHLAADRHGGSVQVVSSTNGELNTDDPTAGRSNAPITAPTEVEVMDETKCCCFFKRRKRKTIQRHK
Compound | remaining activity
Nc1ncnc2n[nH]c(Nc3ccc(F)cc3)c12 | 97.9%
Nc1[nH]nc2nc3ccccc3nc12 | 95.6%
C#Cc1cccc(Nc2ncnc3cc(OCCOC)c(OCCOC)cc23)c1 | 106%
O=C1NC(=O)C(c2cn(CCCn3ccnc3)c3ccccc23)=C1Nc1ccccc1 | 110%
Cc1ccc(NC(=O)c2ccc(CN3CCN(C)CC3)cc2)cc1Nc1nc(-c2cccnc2)cs1 | 96.8%
Cc1nc(-c2ccccc2)c(-c2ccncc2)o1 | 104%
O=C(CCCc1ccc(-c2ccccc2F)cc1)Nc1ccc(O)cc1 | 104%
COc1ccc(CNC(=O)Nc2ncc([N+](=O)[O-])s2)cc1 | 90.4%
Cn1c2ccccc2c2c3c(c4c5ccccc5n(CCC#N)c4c21)CNC3=O | 137%
COc1ccc(OC)c2c(=S)c3ccccc3[nH]c12 | 86.2%
CN(C)c1ccc(C=C2C(=O)Nc3ccccc32)cc1 | 101%
NCCNc1ncc(C(N)=O)c(Nc2cccc(C(F)(F)F)c2)n1 | 93.9%
CC(C)[C@H](CO)Nc1nc(Nc2cc(N)cc(Cl)c2)c2ncn(C(C)C)c2n1 | 13.4%
OCC(O)CCON=C1C(c2c(O)[nH]c3ccccc23)=Nc2ccccc21 (stereo not shown) | 90.7%
